Experimental data gathered from unrelated publications.
Each numbered part is a random draw from the data of one study; scales do not carry over between parts.

Series 1 — technique: RNA Bind-n-Seq; form: RNA; sample: in vitro; tested at: not given; reference: input RNA pool; direction: higher = stronger binding
Target: RING finger protein unkempt homolog, zinc fingers 1-6, GST-SBP tag (UNK, Homo sapiens, UniProt Q9C0B0, residues 30-357)
Sequence of UniProt Q9C0B0 (30-357, looked up): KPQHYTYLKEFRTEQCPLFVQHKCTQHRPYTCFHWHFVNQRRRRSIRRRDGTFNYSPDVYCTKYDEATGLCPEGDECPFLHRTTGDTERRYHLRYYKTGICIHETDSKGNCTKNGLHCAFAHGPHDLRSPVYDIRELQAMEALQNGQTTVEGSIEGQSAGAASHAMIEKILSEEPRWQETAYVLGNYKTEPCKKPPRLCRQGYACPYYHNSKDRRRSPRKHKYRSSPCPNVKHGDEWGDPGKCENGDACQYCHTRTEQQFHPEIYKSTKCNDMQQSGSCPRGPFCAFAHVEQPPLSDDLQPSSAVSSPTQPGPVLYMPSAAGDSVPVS
Setting: RNA with constant flanks, human and mouse sites, ends assumed
`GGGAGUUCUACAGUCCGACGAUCGGUGGCGGCCAGUGGCUGAACUCCAGUUGCGCUUGGUCAGAAUCUUCUCAAUUGAAUAAGACUAGAAGUAUCAGACGGCGAGAUUCCUGUCUAAAUUCCAAGACAAAGGUUAUGCCUACUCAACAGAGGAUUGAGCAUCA` has a bound/input enrichment of 0.152 ratio.
`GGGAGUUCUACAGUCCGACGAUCGAACCUGCUCUUGCAUCAGUGGUAAUCCAUAAGGAGGCCACUGUCUUUGAUCUUCCUAAAUUUAGUGUUUGUGGUAGUUCUCAAGAGAGUGACUCAUUACCUAACUCAGCUCAUGAUCGACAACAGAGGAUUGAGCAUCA` gave a bound/input enrichment of 0.225 ratio.
With `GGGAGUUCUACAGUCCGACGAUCAACAAUGAAUUUAAGACAUAUGGCAUUGAACCUUGAUAUUGAAUUCACAAAGAAUUUCCUAUAGAGCACAGAUUUUUGUUAACAUGAGUCAUAACUGUUAACAAUAUUUUAUUUCUCUUACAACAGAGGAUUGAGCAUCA` the bound/input enrichment was 0.251 ratio.
For `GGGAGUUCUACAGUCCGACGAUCAAAGGAAGUUUGAACAAAGCAAUAGAAGAUUUUGAGCUUGCAUUAGAAAACUGUCCAACUCACAGAAAUGCAAGAAAAUACCUCUGCCAGACACUUGUAGAGAGAGGAGGACAGUUAGAACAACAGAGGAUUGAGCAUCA`, the bound/input enrichment was 3.67 ratio.
`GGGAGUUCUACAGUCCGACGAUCGGUUGGAUCCGAGGUGCAGCCUCAGAGGGAAGGAUUAAGAGCCGCUAGACUUUUUUUCUUUUCCCUUUUUCUCCUCUCAGUGGCACGGAGUCCGAAUUAAUUGGAUUUCAUUCACUGGGUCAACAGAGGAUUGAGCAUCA` has a bound/input enrichment of 0.145 ratio.
The bound/input enrichment of `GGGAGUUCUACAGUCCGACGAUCAAACACAGUGAUCACCGAAUGAGGGAAAAAGCAGACAUUCAACUUCUUGUUUACACUAUUGAUGACUUAAUUGAUAAGCUCUCAACUAUAGUUAACUAGUAUCACAUGUUUAGUUGGUAUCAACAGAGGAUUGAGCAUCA` is reported as 1.28 ratio.
The bound/input enrichment of `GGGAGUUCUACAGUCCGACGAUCAAGGAGGCAGAGGGUCAGAGCUUGGUGGUUUAUCUUUUCCUUGUUUCUCCUUGUUUCUGUUUUAGAAAUGAAGUGUGGGGGUUUAAAUGGCACUUAAACUGCACCCUGGAGCCGGCAGAACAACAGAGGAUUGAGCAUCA` is reported as 0.455 ratio.
`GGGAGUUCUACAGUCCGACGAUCAGGAGUAGCUCUGUUUCCACUAUUGACACUGCCCGGCUGAUUCAAGCUUUUGGCCAUGAAAGAGUAUGCUUGUCACCCAGACGAAUUAAAUUAUAUAGCAGCAUCACCAACCAACAGAGGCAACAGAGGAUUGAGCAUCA` has a bound/input enrichment of 0.603 ratio.
The bound/input enrichment of `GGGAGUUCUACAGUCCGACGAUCUUCUUUAACAAUUUUACAAUGAAAAUAAAAACUUAAUAAAAGGUGGUAAUGGGCCAGGCACGGUGGCUCACGCAUACAAUCCCAGCACUUUGGGAGACUAAGGCGUGAGGAUCACUUGAGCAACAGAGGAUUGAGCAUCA` is reported as 0.901 ratio.
With `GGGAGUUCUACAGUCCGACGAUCGCGUUUAUCUGUUGCACUUUUCAUGUCUGUUUGUCUCCCAAGUGUCGGCUACCCUGCCCUCAGAUAUAGGCCGGUUUUAUUUCUUGCUUUGGGUGUUUUGUUUGCCGUAUAUCUGUACAACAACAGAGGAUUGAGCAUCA` the bound/input enrichment was 0.347 ratio.
`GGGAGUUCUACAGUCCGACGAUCCGCCCCGCGGGUUUUUUCCUUUUUUCCUUUUGCUUUUUUUCCUUUUCUCCCUCCGGGUCUCCUUUUUGACUCCCUCCCCCUUUAUGCUCGCCCAGCCCUCCCCCUGCUGCUGAGAAGUGGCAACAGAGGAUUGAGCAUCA` has a bound/input enrichment of 1.92 ratio.

Series 2 — technique: RNA Bind-n-Seq; form: RNA; sample: in vitro; tested at: 1 µM; setting: whole 134-nt RNA, ends assumed; together with: 150 mM KCl; reference: input library; direction: higher = stronger binding
Target: Ras GTPase-activating protein-binding protein 1, RRM domain (G3BP1, Homo sapiens, UniProt Q13283)
Sequence of UniProt Q13283 (whole entry, looked up): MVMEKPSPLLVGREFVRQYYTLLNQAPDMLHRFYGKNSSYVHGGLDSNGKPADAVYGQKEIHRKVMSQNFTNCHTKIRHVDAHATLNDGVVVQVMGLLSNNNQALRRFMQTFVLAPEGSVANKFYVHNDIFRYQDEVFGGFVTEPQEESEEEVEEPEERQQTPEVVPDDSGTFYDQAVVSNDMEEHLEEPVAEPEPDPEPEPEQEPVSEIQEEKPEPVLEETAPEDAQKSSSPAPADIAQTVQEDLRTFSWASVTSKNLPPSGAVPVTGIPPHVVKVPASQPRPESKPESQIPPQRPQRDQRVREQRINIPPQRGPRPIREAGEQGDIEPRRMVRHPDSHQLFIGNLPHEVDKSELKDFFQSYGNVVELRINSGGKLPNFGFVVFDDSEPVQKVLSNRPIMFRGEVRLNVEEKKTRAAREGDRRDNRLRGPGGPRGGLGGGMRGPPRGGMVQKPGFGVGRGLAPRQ
`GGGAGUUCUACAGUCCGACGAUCUAACUUUAGAGGAGGAUCUGAUGGAUAUGGCAGUGGACGUGGAUUUGGGGAUGGCUAUAAGGGGUAUGGAGGAGGACCUGGAGGUGGCAAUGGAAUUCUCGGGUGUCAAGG` gave a log2 enrichment of -0.379.
`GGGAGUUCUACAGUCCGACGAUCAGUCCUGUGCUACACAUCGUAUGUACCGAAUCGGGUUUUUGGUUUUUGGUUUUUGGGGAAAGUAUUAUGUUACGCCGUUCGGAUCUGCACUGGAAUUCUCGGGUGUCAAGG` has a log2 enrichment of -0.242.
With `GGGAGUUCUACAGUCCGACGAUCAAGUCCUGUGCUACACAUCGUAUGUACCGAAUCGGGGAGGGGAGGGGAAAAAGGGGAAAGUAUUAUGUUACGCCGUUCGGAUCUGCACUUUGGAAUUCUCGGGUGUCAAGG` the log2 enrichment was 0.814.
The log2 enrichment of `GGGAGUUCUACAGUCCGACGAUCUACUCAGCACAGAAAUUCAGGAGACACAGACAAGUUCUUCCACGAUGUCGUACAGACGAGAACUAGAGAAAUACCGUGACCUGGAUGAAGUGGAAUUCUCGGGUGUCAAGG` is reported as 0.0987.
With `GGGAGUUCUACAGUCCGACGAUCCUCAAGUCCUGUGCUACACAUCGUAUGUACCGAAUCGGGAAAGGGUGGGAGGGAAAGUAUUAUGUUACGCCGUUCGGAUCUGCACUUCCAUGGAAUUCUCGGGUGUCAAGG` the log2 enrichment was 0.757.
With `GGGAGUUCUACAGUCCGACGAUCCCUGUGCUACACAUCGUAUGUACCGAAUCGGGGAAAAAAAGGAAAAAAAGGGAAAAAAAGGAAAGUAUUAUGUUACGCCGUUCGGAUCUGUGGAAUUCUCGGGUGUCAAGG` the log2 enrichment was 0.0611.
With `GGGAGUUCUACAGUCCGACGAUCUGAGUAGAUCUAGAAAUGACAGUAUGACUUUGUUUCUAACAGCUCCAAAAUGGAUCAAAAUGUUUGUUUUGGAUGAAGCAGAUGAAAUGUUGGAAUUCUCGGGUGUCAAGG` the log2 enrichment was -0.454.
`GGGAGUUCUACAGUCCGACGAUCCUGUGCUACACAUCGUAUGUACCGAAUCGGGGUUUUUGGGGUUUUUUUGGGGAAAAAGGGGAAAGUAUUAUGUUACGCCGUUCGGAUCUGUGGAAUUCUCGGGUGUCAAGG` has a log2 enrichment of 0.868.
The log2 enrichment of `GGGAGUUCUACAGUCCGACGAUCCACAGACAACACGCACCCACACAGACACAGAGGGAAGGGGUUGGGAUGGGGACAGGGUGCACAGCAGGGCGGGGUAGGACCCCAGACCCUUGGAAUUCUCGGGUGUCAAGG` is reported as -0.558.
For `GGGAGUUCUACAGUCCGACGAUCAAGUCCUGUGCUACACAUCGUAUGUACCGAAUCGGGCCCGGGGCCCGGGCCCGGGGAAAGUAUUAUGUUACGCCGUUCGGAUCUGCACUUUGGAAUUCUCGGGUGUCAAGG`, the log2 enrichment was -0.716.

Series 3 — technique: protein binding microarray; form: double-stranded DNA, one strand shown; sample: in vitro; tested at: not given; reference: not given; direction: higher = stronger binding
Target: Histone acetyltransferase KAT6A, both winged helices, GST fusion (KAT6A, Homo sapiens, UniProt Q92794, residues 1-181)
Setting: 8-mer, flanks averaged, mean of 2 arrays, mostly near background
Target sequence (chain): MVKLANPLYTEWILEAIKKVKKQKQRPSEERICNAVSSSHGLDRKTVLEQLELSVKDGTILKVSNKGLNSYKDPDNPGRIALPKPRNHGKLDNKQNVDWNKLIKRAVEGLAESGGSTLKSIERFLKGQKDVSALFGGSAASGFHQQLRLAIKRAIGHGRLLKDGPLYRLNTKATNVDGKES
`ACCACACT` has an E-score of -0.0943.
The E-score of `ACCCATTA` is reported as -0.222.
The E-score of `CCTTTAAG` is reported as -0.205.
With `CCCGGGAG` the E-score was 0.231.
`AACCTAGC` has an E-score of -0.12.
For `CACTAGCA`, the E-score was -0.229.
`CGGTAGTA` gave an E-score of 0.116.
The E-score of `CCAACAGC` is reported as -0.0892.
With `CTGATAAC` the E-score was 0.0418.
With `ATACCGGA` the E-score was 0.122.
The E-score of `GAATTCAA` is reported as -0.149.
The E-score of `CGATGAGC` is reported as 0.144.
The E-score of `AGCTCGGA` is reported as -0.0786.
`CTACACAC` gave an E-score of -0.153.
`AATAATGT` has an E-score of -0.0522.
The E-score of `ACGCGGGA` is reported as 0.254.
`GAGGGCGC` has an E-score of 0.167.

Series 4 — technique: universal PBM; form: double-stranded DNA, one strand shown; sample: in vitro; tested at: not given; direction: higher = stronger binding
Target: Sal-like protein 4, full length isoform B (SALL4, Homo sapiens, UniProt Q9UJQ4-2, residues 1-616)
Setting: 8-mer, flanks averaged, mean of replicates
For `AATGAGAA`, the E-score was 0.0358.
`AACTGGTG` has an E-score of -0.229.
For `ATATAGCG`, the E-score was 0.229.
With `ATTTCTAG` the E-score was 0.175.
With `CGTTGTTC` the E-score was -0.0228.
`GGAGACTA` gave an E-score of -0.0605.
`AAATCGTC` gave an E-score of 0.116.
`CACTCGAA` has an E-score of 0.0711.
`GTAGCCCA` has an E-score of -0.163.
The E-score of `AGGATTCC` is reported as -0.196.
`CTGATTCC` has an E-score of -0.13.
For `AAATACTG`, the E-score was 0.114.
For `AAGCCGGA`, the E-score was -0.176.
`CACAATCG` gave an E-score of 0.00388.
For `ATATCCCG`, the E-score was -0.0138.
For `ATTGACCC`, the E-score was 0.104.
The E-score of `AAGGACCG` is reported as -0.0751.
With `GCGTTGCA` the E-score was -0.177.
For `AAACGGCG`, the E-score was -0.0791.
`AATCAGCC` has an E-score of -0.189.
`AAGAGGGG` has an E-score of -0.104.
For `CCGGCCCG`, the E-score was -0.409.
`ATTCGCTC` gave an E-score of 0.0505.
`TACCTCAA` has an E-score of 0.0329.
`AGGTTAAA` gave an E-score of 0.155.

For quick reference, copied from above (series 4):
For `AAACGGCG`, the E-score was -0.0791.
`AATCAGCC` has an E-score of -0.189.
`AAGAGGGG` has an E-score of -0.104.
For `CCGGCCCG`, the E-score was -0.409.
`ATTCGCTC` gave an E-score of 0.0505.
`TACCTCAA` has an E-score of 0.0329.
